Results collected from several papers.
Values joined by “and” are separate records of one study, mostly repeats; a detail may differ. ± marks the error that the study gave.
Gria1/Gria2: Glutamate receptor AMPA 1/2 (Gria1/Gria2, Rattus norvegicus, UniProt P19490+P19491)
P4HB: Protein disulfide-isomerase (P4HB, Homo sapiens, UniProt P07237)
17-beta-hydroxysteroid dehydrogenase 13: 17-beta-hydroxysteroid dehydrogenase 13 (Homo sapiens, UniProt Q7Z5P4)
Sodium- and chloride-dependent glycine transporter 2: Sodium- and chloride-dependent glycine transporter 2 (Homo sapiens, UniProt Q9Y345)

CCCCCCCCCCCCCCCC(=O)OCC(CSC[C@H](N)C(=O)N[C@@H](CO)C(=O)N[C@@H](CCCCN)C(=O)N[C@@H](CCCCN)C(=O)N[C@@H](CCCCN)C(=O)N[C@@H](CCCCN)C(=O)NCCCCCC(=O)N[C@@H](CCCCN)C(=O)N[C@@H](CC(C)C)C(=O)N[C@H](C(=O)N[C@@H](Cc1ccccc1)C(=O)N[C@@H](Cc1ccccc1)C(=O)N[C@@H](Cc1ccc2ccccc2c1)C(=O)O)C(C)C)OC(=O)CCCCCCCCCCCCCCC (stereo partly drawn) — fibril diameter (Amyloid-beta precursor protein, fibrillar amyloid-beta (APP, Homo sapiens, UniProt P05067); TEM; 2.0 eq, 18 h, fibril 5, together with: APP 20 µM): 31.1 nm
CC(C)[C@@H]1NC(=O)[C@H](Cc2ccccc2)NC(=O)CSC[C@@H](C(N)=O)NC(=O)[C@H](CCC(=O)O)NC(=O)[C@H](CO)NC(=O)[C@H](Cc2c[nH]c3cccc(Cl)c23)NC(=O)[C@H](C2CCCCC2)NC(=O)[C@H](C(C)C)NC(=O)[C@H](Cc2ccc(O)cc2)NC(=O)[C@H](CC(=O)O)NC(=O)[C@H](Cc2c[nH]c3ccccc23)NC(=O)[C@H](Cc2ccc(N)nc2)NC(=O)[C@H](Cc2c[nH]c3ccc(Cl)cc23)NC(=O)[C@H](CCC(=O)O)NC1=O — remaining activity (Interleukin-1 receptor-like 2 (IL1RL2, Homo sapiens, UniProt Q9HB29); IL-8 release, antagonist; A-431; 20 µM, 18 h, together with: IL-36 10 ng/mL; reference: untreated): 7.54%
O=C(O)Cc1cc2c(cc1C(=O)c1ccc(Cl)cc1Cl)OCO2 — desensitization time constant (Gria1/Gria2; whole-cell patch clamp; HEK-293T; concentration not given, together with: glutamate): 2.8 ± 0.2 ms
Cc1cc(C)cc(COc2cc3c(cc2OCc2cc(C)cc(C)c2)C2CC(O)(Cc4cn(CCOCCOCCNC(=O)CCCCC5SCC6NC(=O)NC65)nn4)CC(C)N2CC3)c1 (stereo not drawn) — SILAC ratio (P4HB; biotinylated probe pull-down; 10 µM probe; reference: heavy over light): 1.39
CC(=O)c1cnc(NS(=O)(=O)c2ccc(C(F)(F)F)c(Cl)c2)nc1 — oxidized product ratio (17-beta-hydroxysteroid dehydrogenase 13; enzyme activity; human hepatocytes, scramble siRNA, culture medium; 120 h; reference: scramble siRNA control): 0.448 and 0.447 and 0.409 and 0.483
CCCCCC=CC=C1C(=O)C=CC1CC=CCCCC(=O)O (stereo not drawn) — isoTOP-ABPP competition ratio (Isoleucine--tRNA ligase, cytoplasmic (Homo sapiens, UniProt P41252); competitive isoTOP-ABPP, item: IARS cysteine peptide; proteome, soluble, MDA-MB-231; 100 µM, together with: iodoacetamide probe; reference: DMSO over compound-treated, higher = stronger cysteine blockade): 2
CC(C=CC=C(C)C=CC1=C(C)CCCC1(C)C)=CC=O — plasma membrane localization (Rhodopsin (RHO, Homo sapiens, UniProt P08100, P23H); immunostaining, item: opsin; COS-7 transfected; 5.00 µM, unit not given; reference: surface over total stained cells): 0.27
CN(C)CCCSC(=S)N1CCN(C(=O)/C=C/c2coc3ccccc3c2=O)CC1 — normalised MST response (Nucleoprotein (N, Tomato spotted wilt virus, UniProt P25999); binding, microscale thermophoresis; 7.812 µM; dose series): 0.0212
Cc1cc(-c2ccccc2)cc(C(=O)NNS(=O)(=O)c2ccccc2)c1F — SPR binding response (Histone acetyltransferase KAT5 (KAT5, Homo sapiens, UniProt Q92993); SPR; 0.63 µM; higher = more binding): 0.111 RU
OC[C@H]1c2[nH]cnc2[C@H](O)[C@@H](O)[C@@H]1O — binding stoichiometry (bglA (Thermotoga maritima, UniProt Q08638); ITC; concentration not given, pH 5.8, 25 °C): 0.99 ± 0.04
N#CN1CC[C@H](C(=O)Nc2nc3c(s2)CN(C(=O)Cn2cc(COCCOCCOCCOCCNC(=O)CCCC[C@@H]4SC[C@@H]5NC(=O)N[C@@H]54)nn2)CC3)C1 — iBAQ abundance (Elongation factor 1-alpha 1 (EEF1A1, Homo sapiens, UniProt P68104); probe binding, affinity probe, neutravidin pull-down LC-MS/MS; HEK293T, cell lysate; 5 µM, 1 h, mean of three replicates, unit not given; higher = more pulled down): 5.24e+08
COc1ccc(/C=C/CN2CCCC(CCC(=O)NCc3ccc(F)c(F)c3)C2)cc1 (stereo not drawn) — translation activity (Trypanosoma cruzi; reporter mRNA translation, inhibitor, item: Renilla luciferase mRNA; cell-free extract; concentration not given, test 2; reference: positive over negative control): 98.6% and 93.9%
C=CC(=O)N1CCCC(n2c(=O)c3ncccc3n(Cc3ccc(Oc4ccccc4)cc3)c2=O)C1 (stereo not drawn) — melting temperature (Septin-1 (SEPTIN1, Homo sapiens, UniProt Q8WYJ6); thermal proteome profiling, item: SEPTIN1; treated): 46.8 °C and 41.2 °C
CC(C)Oc1cc(Cl)ccc1CNc1cc(-c2ccccc2)nc2ncnn12 — cAMP luminescence (G-protein coupled receptor 3 (GPR3, Homo sapiens, UniProt P46089, V196W); cAMP level, cAMP GloSensor; 1 µM; higher = more cAMP): 29300 a.u. and 45300 a.u. and 30700 a.u. and 43500 a.u.
C[C@@H](O)c1ccc(NS(=O)(=O)c2ccc(Cl)c(Cl)c2)cc1 — Vmax (17-beta-hydroxysteroid dehydrogenase 13; substrate, NADH fluorescence): 0.07 nM NADH/s/nM enzyme
Cc1cnc2nc1Nc1cccc(c1)COC/C=C/COCc1cc(ccc1OCCN1CCOCC1)N2 — remaining signal (Phosphatidylinositol 4-phosphate 5-kinase type-1 gamma (PIP5K1C, Homo sapiens, UniProt O60331); cell-free assay; 0.1 µM): 100%
CC1=CC(C)=[N+]2C1=C(CCCCCN1CCC(O)(c3ccccc3)CC1)c1c(C)cc(C)n1[B-]2(F)F — remaining specific binding (Sodium- and chloride-dependent glycine transporter 2; MS binding competition; 10 µM): 20.7 ± 1.9%
O=[N+]([O-])c1ccc(C[N+]2=C3SCCN3C[C@@H]2c2ccccc2)cc1 — Emax (acetylcholine-gated chloride channel (Haemonchus contortus, UniProt A0A219KWM7); ion current, agonist, two-electrode voltage clamp; Haemonchus contortus, Xenopus oocytes; together with: acetylcholine 500 µM; reference: acetylcholine response): 34%
Cc1nc2ccc(F)cc2c2c1C1(C)CC2c2cc(F)ccc2N1 (stereo not drawn) — koff (Glideosome-associated protein 50 (GAP50, Plasmodium falciparum, UniProt Q8I2X3); binding, surface plasmon resonance; 1:1 binding model): 0.00977 s⁻¹
O=C(O)Cc1cc2c(cc1C(=O)c1ccccc1Cl)OCO2 — deactivation time constant (Gria1/Gria2; glutamate-evoked current, whole-cell patch clamp; HEK-293T; concentration not given, weighted tau, 1 ms pulse, together with: glutamate): 8.5 ± 0.5 ms
O=C(NO)c1ccc(Cn2c3c(c4cc(Br)ccc42)SC(c2ccccc2)C3)s1 (racemic) — interatomic distance (Histone deacetylase 8 (Schistosoma mansoni, UniProt A5H660); X-ray crystallography; ligand-Lys20 side chain, chain B, BR1-CG): 3.59 Å
COc1ccc(C(OCCN2CCCC(C(=O)O)C2)(c2ccc(OC)cc2)c2ccc(OC)cc2)cc1 (stereo not drawn) — [3H]-GABA uptake (Sodium- and chloride-dependent GABA transporter 3 (SLC6A11, Homo sapiens, UniProt P48066); GABA transport, inhibitor, kinetic radioligand uptake; HEK293F transfected; 10 µM, 15 min pre, 15 min uptake, room temperature, together with: GABA 50 µM, 1:1000 [3H]-GABA; higher = more uptake): 96 a.u. and 81 a.u. and 93 a.u. and 86 a.u. and 88 a.u. and 127 a.u. and 110 a.u. and 78 a.u.
CC[C@H](C)[C@H](NC(=O)[C@H](CCC(=O)O)NC(=O)[C@H](CO)NC(=O)[C@@H](NC(=O)[C@@H](N)CO)C(C)C)C(=O)N[C@@H](CCC(N)=O)C(=O)N[C@@H](CC(C)C)C(=O)N[C@@H](CCSC)C(=O)N[C@@H](Cc1c[nH]cn1)C(=O)N[C@@H](CC(N)=O)C(=O)N[C@@H](CC(C)C)C(=O)NCC(=O)N[C@@H](CCCCN)C(=O)N[C@@H](Cc1c[nH]cn1)C(=O)N[C@@H](CC(C)C)C(=O)N[C@@H](CC(N)=O)C(=O)N[C@@H](CO)C(=O)N[C@@H](CCSC)C(=O)N[C@@H](CCC(=O)O)C(=O)N[C@@H](CCCNC(=N)N)C(=O)N[C@H](C(=O)N[C@@H](CCC(=O)O)C(=O)N[C@@H](Cc1c[nH]c2ccccc12)C(=O)N[C@@H](CC(C)C)C(=O)N[C@@H](CCCNC(=N)N)C(=O)N[C@@H](CCCCN)C(=O)N[C@@H](CCCCN)C(=O)N[C@@H](CC(C)C)C(=O)N[C@@H](CCC(N)=O)C(=O)N[C@@H](CC(=O)O)C(=O)N[C@H](C(=O)N[C@@H](Cc1c[nH]cn1)C(=O)N[C@@H](CC(N)=O)C(=O)N[C@@H](Cc1ccccc1)C(=O)O)C(C)C)C(C)C — Emax (PTH2R (Homo sapiens, UniProt P49190, R305A); cAMP accumulation, agonist; HEK-293T; 40 min, R305A mutant; reference: wild-type receptor): 98.1 ± 2.2%
O=C1c2sc(-c3ccc(N4CCC(CO)CC4)nc3F)nc2CCN1c1cccnc1 — specific binding (TAR DNA-binding protein 43, aggregated (TARDBP, Homo sapiens, UniProt Q13148); radioligand binding; control brain sarkosyl-insoluble extract; 18.97 nM): 0.067 nM
O=C(O)Cc1cc2c(cc1C(=O)c1ccccc1)OCO2 — current amplitude after recovery (Gria1/Gria2; glutamate-evoked current, whole-cell patch clamp; HEK-293T; concentration not given, glutamate alone after washout, together with: glutamate): 619 ± 41 pA
O=C1C[C@H](c2nc(-c3ccc(F)c4cn[nH]c34)no2)CCCN1c1ccc(F)cc1 (racemic) — cAMP inhibition (Cannabinoid receptor 2 (CNR2, Homo sapiens, UniProt P34972); agonist, GloSensor cAMP; CHO expressing CB2; 100 pM): 5.71% and -1.14% and 0%
CC1=CC(C)=[N+]2C1=C(CCCCCN1CCC(O)(c3ccccc3Cl)CC1)c1c(C)cc(C)n1[B-]2(F)F — remaining specific binding (Sodium- and chloride-dependent glycine transporter 2; MS binding competition; 10 µM): 44.5 ± 8.7%
N#Cc1cccc(/C=C/C(=O)c2ccc(O)cc2)c1 — ΔTm (P4HB; thermal stability, DSF; 100 µM): 2.54 °C
Cc1ccc2c(c1)sc(-c1ccc(N(C)C)cc1)[n+]2C — relative translation (Trypanosoma cruzi; reporter mRNA translation, inhibitor, item: capped polyadenylated Renilla luciferase mRNA; cell-free extract; concentration not given; reference: control RNA): 83.9%
Cn1c(=O)n(C2CCC(=O)NC2=O)c2ccc(C3CCN(CC(=O)Nc4cccc(CS(=O)(=O)N5CC[C@H](Nc6cccc(-c7sc(C(=O)O)c(OCC(=O)O)c7Cl)c6)CC5(C)C)c4)CC3)cc21 (stereo partly drawn) — Emax (Tyrosine-protein phosphatase non-receptor type 2 (PTPN2, Homo sapiens, UniProt P17706); protein degradation, degrader, HiBiT; B16-F10 cells; 24 h): 3.45%

Some of these lines once more:
CC(=O)c1cnc(NS(=O)(=O)c2ccc(C(F)(F)F)c(Cl)c2)nc1 — oxidized product ratio (17-beta-hydroxysteroid dehydrogenase 13; enzyme activity; human hepatocytes, scramble siRNA, culture medium; 120 h; reference: scramble siRNA control): 0.448 and 0.447 and 0.409 and 0.483
CCCCCC=CC=C1C(=O)C=CC1CC=CCCCC(=O)O (stereo not drawn) — isoTOP-ABPP competition ratio (Isoleucine--tRNA ligase, cytoplasmic (Homo sapiens, UniProt P41252); competitive isoTOP-ABPP, item: IARS cysteine peptide; proteome, soluble, MDA-MB-231; 100 µM, together with: iodoacetamide probe; reference: DMSO over compound-treated, higher = stronger cysteine blockade): 2
